Assay results gathered from unrelated publications.
Lines come from different studies, so protocols differ. Values joined by “and” are separate records of one study, mostly repeats; a detail may differ. ± gives the spread as reported.
CYSLTR2: Cysteinyl leukotriene receptor 2 (CYSLTR2, Homo sapiens, UniProt Q9NS75)
Chain of UniProt Q9NS75 (whole entry, looked up): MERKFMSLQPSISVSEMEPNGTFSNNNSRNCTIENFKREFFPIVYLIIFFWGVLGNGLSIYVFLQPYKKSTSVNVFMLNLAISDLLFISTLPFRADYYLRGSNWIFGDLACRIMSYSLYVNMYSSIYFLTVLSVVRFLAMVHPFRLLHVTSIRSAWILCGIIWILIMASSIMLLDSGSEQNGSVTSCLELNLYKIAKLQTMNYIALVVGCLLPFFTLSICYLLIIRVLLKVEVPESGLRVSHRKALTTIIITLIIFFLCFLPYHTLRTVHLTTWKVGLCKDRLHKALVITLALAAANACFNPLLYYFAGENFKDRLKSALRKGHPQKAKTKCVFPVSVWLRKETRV
Nicotinic acetylcholine receptor alpha1/beta1/epsilon/delta: Nicotinic acetylcholine receptor alpha1/beta1/epsilon/delta (Mus musculus, UniProt P02716+P04756+P09690+P20782)
Chain of UniProt P02716 (whole entry, looked up): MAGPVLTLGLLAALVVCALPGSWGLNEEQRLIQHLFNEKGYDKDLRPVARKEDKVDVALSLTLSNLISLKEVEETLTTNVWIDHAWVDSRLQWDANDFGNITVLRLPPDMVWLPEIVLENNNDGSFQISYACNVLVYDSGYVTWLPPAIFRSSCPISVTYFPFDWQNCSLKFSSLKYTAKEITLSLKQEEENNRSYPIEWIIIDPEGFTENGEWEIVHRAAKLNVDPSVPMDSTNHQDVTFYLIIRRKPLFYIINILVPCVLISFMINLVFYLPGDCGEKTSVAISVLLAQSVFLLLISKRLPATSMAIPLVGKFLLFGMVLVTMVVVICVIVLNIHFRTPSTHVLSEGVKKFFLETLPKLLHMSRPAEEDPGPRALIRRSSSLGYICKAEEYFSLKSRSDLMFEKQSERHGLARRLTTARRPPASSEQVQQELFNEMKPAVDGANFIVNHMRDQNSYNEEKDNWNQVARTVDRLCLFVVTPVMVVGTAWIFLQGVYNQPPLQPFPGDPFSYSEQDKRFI
Chain of UniProt P04756 (whole entry, looked up): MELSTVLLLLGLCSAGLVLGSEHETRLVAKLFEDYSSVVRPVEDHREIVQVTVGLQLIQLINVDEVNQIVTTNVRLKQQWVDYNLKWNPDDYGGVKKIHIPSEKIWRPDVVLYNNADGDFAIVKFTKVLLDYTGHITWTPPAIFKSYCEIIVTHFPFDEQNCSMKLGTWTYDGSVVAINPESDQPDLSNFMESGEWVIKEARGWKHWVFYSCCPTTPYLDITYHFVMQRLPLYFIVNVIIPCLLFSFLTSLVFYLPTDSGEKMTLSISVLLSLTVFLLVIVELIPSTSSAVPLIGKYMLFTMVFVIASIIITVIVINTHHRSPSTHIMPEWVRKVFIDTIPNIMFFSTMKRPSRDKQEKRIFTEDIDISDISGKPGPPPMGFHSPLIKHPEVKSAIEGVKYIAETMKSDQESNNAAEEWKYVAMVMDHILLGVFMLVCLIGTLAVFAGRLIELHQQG
Chain of UniProt P09690 (whole entry, looked up): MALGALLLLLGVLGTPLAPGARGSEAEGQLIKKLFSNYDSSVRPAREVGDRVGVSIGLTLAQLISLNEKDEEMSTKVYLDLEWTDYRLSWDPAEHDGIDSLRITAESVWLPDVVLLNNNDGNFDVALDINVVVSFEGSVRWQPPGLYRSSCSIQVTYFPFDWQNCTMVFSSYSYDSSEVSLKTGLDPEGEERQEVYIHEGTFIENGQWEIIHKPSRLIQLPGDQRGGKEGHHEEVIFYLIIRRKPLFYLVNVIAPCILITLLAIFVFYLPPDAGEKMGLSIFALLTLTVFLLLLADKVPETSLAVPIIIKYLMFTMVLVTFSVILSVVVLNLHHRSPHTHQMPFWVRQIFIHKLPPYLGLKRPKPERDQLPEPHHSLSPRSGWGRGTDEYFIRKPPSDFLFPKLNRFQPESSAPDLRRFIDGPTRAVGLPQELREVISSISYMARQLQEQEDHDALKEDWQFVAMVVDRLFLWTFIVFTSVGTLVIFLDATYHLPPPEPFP
Chain of UniProt P20782 (whole entry, looked up): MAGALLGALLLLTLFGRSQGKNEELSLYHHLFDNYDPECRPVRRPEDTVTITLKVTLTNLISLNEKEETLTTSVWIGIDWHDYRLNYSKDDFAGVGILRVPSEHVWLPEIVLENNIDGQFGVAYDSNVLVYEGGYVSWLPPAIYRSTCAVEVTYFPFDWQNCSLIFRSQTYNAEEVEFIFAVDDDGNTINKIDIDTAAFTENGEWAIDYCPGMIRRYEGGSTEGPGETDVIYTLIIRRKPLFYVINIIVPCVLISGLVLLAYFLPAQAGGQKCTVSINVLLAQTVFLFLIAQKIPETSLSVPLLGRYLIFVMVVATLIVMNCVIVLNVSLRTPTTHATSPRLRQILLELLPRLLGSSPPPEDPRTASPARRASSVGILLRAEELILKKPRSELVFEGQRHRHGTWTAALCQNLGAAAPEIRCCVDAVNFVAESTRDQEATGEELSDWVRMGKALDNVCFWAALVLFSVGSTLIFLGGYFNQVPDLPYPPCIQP
UCHL1: Ubiquitin carboxyl-terminal hydrolase isozyme L1 (UCHL1, Homo sapiens, UniProt P09936)
Chain of UniProt Q62351 (whole entry, looked up): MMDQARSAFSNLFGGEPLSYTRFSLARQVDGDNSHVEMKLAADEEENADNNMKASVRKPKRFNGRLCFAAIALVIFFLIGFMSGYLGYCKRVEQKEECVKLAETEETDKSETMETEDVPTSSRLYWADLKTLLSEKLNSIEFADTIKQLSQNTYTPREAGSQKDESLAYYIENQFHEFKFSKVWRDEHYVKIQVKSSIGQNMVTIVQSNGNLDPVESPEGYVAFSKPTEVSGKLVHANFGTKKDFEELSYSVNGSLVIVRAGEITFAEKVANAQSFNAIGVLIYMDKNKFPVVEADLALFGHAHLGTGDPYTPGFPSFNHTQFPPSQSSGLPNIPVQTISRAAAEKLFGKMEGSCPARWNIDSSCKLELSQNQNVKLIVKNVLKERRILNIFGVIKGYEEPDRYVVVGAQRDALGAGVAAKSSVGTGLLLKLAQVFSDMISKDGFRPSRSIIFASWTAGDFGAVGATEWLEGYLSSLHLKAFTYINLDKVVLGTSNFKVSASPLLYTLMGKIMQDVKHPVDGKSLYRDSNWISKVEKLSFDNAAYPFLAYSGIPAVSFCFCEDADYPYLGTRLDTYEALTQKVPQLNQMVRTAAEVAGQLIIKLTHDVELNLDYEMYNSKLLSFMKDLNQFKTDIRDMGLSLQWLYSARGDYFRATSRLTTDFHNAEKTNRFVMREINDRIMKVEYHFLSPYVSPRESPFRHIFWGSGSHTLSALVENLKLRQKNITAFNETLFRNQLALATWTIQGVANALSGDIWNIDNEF
Chain of UniProt P09936 (whole entry, looked up): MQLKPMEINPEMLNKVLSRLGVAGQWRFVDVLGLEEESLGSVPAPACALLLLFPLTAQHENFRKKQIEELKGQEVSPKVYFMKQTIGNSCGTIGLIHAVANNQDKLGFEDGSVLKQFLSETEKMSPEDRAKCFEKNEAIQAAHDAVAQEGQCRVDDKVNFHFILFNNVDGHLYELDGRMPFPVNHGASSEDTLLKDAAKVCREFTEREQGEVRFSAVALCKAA
Chain of UniProt Q6JQN1 (whole entry, looked up): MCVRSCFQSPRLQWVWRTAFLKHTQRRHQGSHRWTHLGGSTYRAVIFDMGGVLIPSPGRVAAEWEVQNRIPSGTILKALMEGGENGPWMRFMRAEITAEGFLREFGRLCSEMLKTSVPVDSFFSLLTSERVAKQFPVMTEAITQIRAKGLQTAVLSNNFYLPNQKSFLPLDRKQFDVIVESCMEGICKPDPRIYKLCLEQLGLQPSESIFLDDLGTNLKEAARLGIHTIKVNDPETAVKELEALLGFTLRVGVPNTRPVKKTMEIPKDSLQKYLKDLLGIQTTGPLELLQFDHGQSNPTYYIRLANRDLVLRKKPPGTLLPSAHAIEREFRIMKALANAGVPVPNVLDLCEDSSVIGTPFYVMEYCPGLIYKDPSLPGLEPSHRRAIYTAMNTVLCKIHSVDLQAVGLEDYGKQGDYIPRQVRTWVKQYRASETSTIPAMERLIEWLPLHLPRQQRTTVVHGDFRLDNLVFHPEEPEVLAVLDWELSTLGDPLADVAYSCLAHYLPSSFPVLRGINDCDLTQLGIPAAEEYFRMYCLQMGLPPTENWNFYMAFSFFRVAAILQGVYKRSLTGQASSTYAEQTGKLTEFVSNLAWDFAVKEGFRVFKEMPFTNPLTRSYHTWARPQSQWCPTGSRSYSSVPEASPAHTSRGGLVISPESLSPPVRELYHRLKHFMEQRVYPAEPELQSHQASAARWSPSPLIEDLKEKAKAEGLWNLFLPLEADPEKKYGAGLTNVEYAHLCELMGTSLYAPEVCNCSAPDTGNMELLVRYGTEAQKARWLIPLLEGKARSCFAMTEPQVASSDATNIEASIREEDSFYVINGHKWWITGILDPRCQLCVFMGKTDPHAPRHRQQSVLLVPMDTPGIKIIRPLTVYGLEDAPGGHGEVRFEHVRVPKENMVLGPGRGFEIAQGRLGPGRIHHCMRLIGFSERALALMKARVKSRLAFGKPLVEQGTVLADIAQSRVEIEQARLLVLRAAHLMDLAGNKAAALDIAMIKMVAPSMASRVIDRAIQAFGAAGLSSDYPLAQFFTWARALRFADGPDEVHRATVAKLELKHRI
Chain of UniProt Q8IY84 (whole entry, looked up): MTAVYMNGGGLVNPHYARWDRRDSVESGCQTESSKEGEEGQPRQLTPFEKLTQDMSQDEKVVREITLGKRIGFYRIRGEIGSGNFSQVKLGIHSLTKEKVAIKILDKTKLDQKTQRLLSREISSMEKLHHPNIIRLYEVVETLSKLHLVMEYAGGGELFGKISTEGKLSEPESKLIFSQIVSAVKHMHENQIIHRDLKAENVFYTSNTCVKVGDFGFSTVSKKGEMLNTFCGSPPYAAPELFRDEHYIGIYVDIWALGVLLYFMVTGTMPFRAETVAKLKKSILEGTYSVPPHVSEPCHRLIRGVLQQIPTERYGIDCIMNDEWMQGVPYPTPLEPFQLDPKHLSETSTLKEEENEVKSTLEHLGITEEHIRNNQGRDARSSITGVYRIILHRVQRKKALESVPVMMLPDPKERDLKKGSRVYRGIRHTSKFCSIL

Structure (SMILES)	target	assay	system	conditions	scale	measurement	value
Cc1nc2cc(CCOCCCCCc3ccccc3)ccc2n1COCC[Si](C)(C)C	ATP2A2 (Sus scrofa, UniProt P11607)	ATPase activity				concentration with loss of stimulation	≥ 5 µM
Nc1ncc(-c2nc(N3CCOCC3)nc(N3CCOCC3)n2)c(C(F)F)n1	Serine/threonine-protein kinase NIM1 (NIM1K, Homo sapiens, UniProt Q8IY84)	KINOMEscan		10 µM		remaining binding	68%
O=C(c1ccc(Cl)cc1)N1CCN2C(=O)N(OC(=O)N3CCOc4ccccc43)C(=O)C2C1 (centres unmarked)	Zinc-alpha-2-glycoprotein (AZGP1, Homo sapiens, UniProt P25311)	MS-based ABPP	SW-620 conditioned medium	10 µM	baseline: compound over DMSO, lower = more inhibition	median protein ratio	1.1
COc1ccc(N2C(=O)N(c3c(C)cccc3Cl)Cc3cnc(Nc4ccc(C5CCN(C)CC5)cc4OC)nc32)nc1	Serine/threonine-protein kinase BRSK1 (BRSK1, Homo sapiens, UniProt Q8TDC3)	kinase activity		0.5 µM		inhibition	10%
CCOC(=O)CC(SP(=O)(OC)OC)C(=O)OCC (centres unmarked)	uncharacterized protein (Anopheles coluzzii, UniProt A0A6E8VQK1)	enzyme activity, inhibitor	Sf9 cell homogenate	0.04587 µM, 0.1667 h, added: α-naphthyl acetate substrate	baseline: no inhibitor	remaining activity	99.4%
CC[C@@H](C)[C@@H](NC(=O)[C@@H](Cc1ccc(O)cc1)NC(=O)[C@H]1CCCN1C(=O)[C@@H](CCCNC(=N)N)NC(=O)[C@H](N)Cc1c[nH]cn1)C(=O)N[C@H](C)C(=O)N[C@H](Cc1c[nH]cn1)C(=O)N[C@H](CCCNC(=N)N)C(=O)N[C@H](CCCCNC(=O)c1cccc(S(=O)(=O)F)c1)C(=O)N[C@H](Cc1ccc(O)cc1)C(=O)N[C@H](CO)C(=O)N[C@H](Cc1ccccc1)C(N)=O	Transferrin receptor protein 1 (Tfrc, Mus musculus, UniProt Q62351)	flow cytometry	DC2.4	48 h, pH 7.4, unit not given	baseline: 0 h	surface expression	0.51 and 0.413
O=C[C@H](O)COP(=O)(O)O	Triosephosphate isomerase (Leishmania mexicana, UniProt P48499, E66Q)					Km	460 µM
O=C(Nc1cnccc1Cl)N1CCN(Cc2ccc3c(c2)OC(F)(F)O3)CC1	CYSLTR2	radioligand binding		10 µM, added: [3H]LTD4		inhibition of binding	10%
CN(CC(=O)O)C(=N)NP(=O)(O)O	Creatine kinase U-type, mitochondrial (CKMT1A, Homo sapiens, UniProt P12532, E265D)	substrate, Kinase-Glo luminescence		pH 7.0, reverse reaction, E227D mutant, added: second substrate in excess		Km	139 ± 3 µM
O=[N+]([O-])/C=C/c1ccc2c(c1)OCO2	Transient receptor potential cation channel subfamily M member 8 (TRPM8, Homo sapiens, UniProt Q7Z2W7)	antagonist	HEK293	5 µM		remaining activity	98.3 ± 9.84%
COC(=O)[C@@]1(O)C[C@H]2O[C@]1(C)n1c3ccccc3c3c4c(c5c6ccccc6n2c5c31)C(=O)NC4	Mitogen-activated protein kinase 3 (MAPK3, Homo sapiens, UniProt P27361)	ADP-Glo		12.1 µM, added: substrate MBP		remaining activity	106%
CC[N+]1(CC)CCN(c2cccc(C)c2)CC1	Nicotinic acetylcholine receptor alpha1/beta1/epsilon/delta	ion current, inhibitor, two-electrode voltage clamp	Xenopus oocytes	30 µM, after co-application, unit not given, added: ACh 30 µM	baseline: ACh alone	ACh response	0.473 ± 0.134
COc1ccc(CNC(=O)[C@@H]2CS[C@H]3CS[C@H](CS)N32)cc1	sfhI (Serratia fonticola, UniProt Q9RMI1)	activity class		concentration not given		activity	inactive
O=c1c2ccccc2oc2cc(OCCCCc3ccccc3)ccc12	Acetylcholinesterase (ache, Electrophorus electricus, UniProt O42275)	enzyme activity, inhibitor, Lineweaver-Burk plot		0.36 µM	higher = faster reaction	Vmax	0.0044 a.u.
CC(=O)SCCNC(=O)CCNC(=O)[C@H](O)C(C)(C)COP(=O)(O)OP(=O)(O)OC[C@H]1O[C@@H](n2cnc3c(N)ncnc32)[C@H](O)[C@@H]1OP(=O)(O)O	gltA (Thermoplasma acidophilum, UniProt P21553, D318G)	steady-state turnover, substrate		100 µM, pH 8, 20 °C, added: oxaloacetate 400 µM		kcat	0.0015 s⁻¹
C[C@H]1CN(c2n[nH]c3nc(N[C@H]4CC[C@H](NS(=O)(=O)CCC(F)(F)F)CC4)ncc23)CCO1	Acyl-CoA dehydrogenase family member 10 (ACAD10, Homo sapiens, UniProt Q6JQN1)	inhibitor, Kinobeads competition profiling		0.16 µM	baseline: vehicle	relative abundance	1.14
O=C(O)COP(=O)(O)O	TPI1 (Saccharomyces cerevisiae, UniProt P00942, Y208A)	enzyme activity, competitive inhibitor, GPDH/NADH-coupled		pH 7.5, 25 °C, ionic strength 0.1 NaCl, added: glyceraldehyde 3-phosphate substrate	baseline: mutant over wild type	Ki ratio	67
Oc1c(Cl)cc(-c2ccccc2)cc1Cl	Sulfotransferase 2A1 (SULT2A1, Homo sapiens, UniProt Q06520)	substrate, HPLC		pH 7.0, 37 °C, added: 200 µM PAPS		Km	8.5 ± 1.8 µM
CSc1ccc(C(=O)CCl)cc1	UCHL1	covalent, intact protein LC-MS		12.5 µM		labelling	15.1%

Structure (SMILES)	target	assay	system	conditions	scale	measurement	value
Clc1ccc(COc2ccccc2CNCc2cccnc2)cc1	aacA-aphD, AAC(6')-Ie domain (Staphylococcus aureus, UniProt P0A0C1)	neomycin acetylation, inhibitor		added: neomycin		highest concentration without inhibition	> 200 µM
CN(C(=O)n1cnc(-c2ccc[n+]([O-])c2)c1)C1CCCCC1	CYSLTR2	radioligand binding		10 µM, added: [3H]LTD4		inhibition	-2%
Oc1ccc(/C=C/c2cc(O)cc(O)c2)cc1	O-methyltransferase (Sorghum bicolor, UniProt A0A1B6PFV1, W279A)	isothermal titration calorimetry		concentration not given, APO		binding stoichiometry N	0.82 ± 0.017 sites
COc1cc(N)c(Cl)cc1C(=O)NC1CN2CCC1CC2 (centres unmarked)	Mas-related G-protein coupled receptor member X4 (Homo sapiens, UniProt Q96LA9)	β-arrestin recruitment, TANGO luminescence, item: MRGPRX4		concentration not given	baseline: basal luminescence	log2 fold change	0.38
[2H]c1c([2H])c([C@]2([2H])CCCN2C(=O)C(C)(C)Oc2ccc3cn[nH]c3c2)c([2H])c([2H])c1C([2H])([2H])[2H]	Tyrosine-protein kinase CSK (CSK, Homo sapiens, UniProt P41240)	KINOMEscan		1 µM	baseline: DMSO control	remaining binding	88%
O=c1oc(-c2cccc([N+](=O)[O-])c2)ns1	Proteasome Macropain subunit MB1 (PSMB5, Homo sapiens, UniProt P28074)	enzyme inactivation, inhibitor	human PA28-activated proteasome			kobs/[I]	10.3 M⁻¹ s⁻¹
CN(C(=O)n1cnc(-c2ccc[n+]([O-])c2)c1)C1CCCCC1	Carboxylesterase 1C (Ces1c, Rattus norvegicus, UniProt P10959)	enzyme activity, ABPP	rat, brain	oral, 30 mg/kg/day, 28 days	baseline: vehicle	fold change	-10
O=C(c1ccc(Oc2ccccc2)cc1Cl)c1c[nH]c2ncnc(N[C@@H]3CC[C@@H](CO)OC3)c12	Tyrosine-protein kinase BTK, non-phosphorylated (BTK, Homo sapiens, UniProt Q06187)	binding				residence time	57.5 min
O=C(Nc1cccnn1)N1CCC(=Cc2cccc(Oc3ccc(C(F)(F)F)cn3)c2)CC1	Talin-2 (Rattus norvegicus, UniProt A0A8I5Y6H9)	competitive ABPP with azido-FP probe	rat brain soluble fraction	0.01 µM, unit not given	baseline: DMSO	probe labelling	-4.4
COc1cc(Nc2ncc(F)c(Nc3ccc4c(n3)NC(=O)C(C)(C)O4)n2)cc(OC)c1OC	Phosphatidylinositol 4-kinase beta (PI4KB, Homo sapiens, UniProt Q9UBF8)	binding, KINOMEscan		10 µM, PIK4CB kinase		inhibition	66%
CC[C@H](CO)Nc1nc(NCc2ccc(-c3ccccn3)cc2)c2ncn(C(C)C)c2n1	Dual specificity protein kinase CLK4 (CLK4, Homo sapiens, UniProt Q9HAZ1)	KINOMEscan competition binding		10 µM, primary screen	direction not given	binding score	6
C[n+]1cn([C@@H]2O[C@H](COP(=O)([O-])OP(=O)(O)OP(=O)(O)OC[C@H]3O[C@@H](n4cnc5c(=O)[nH]c(N)nc54)[C@H](O)[C@@H]3O)[C@@H](O)[C@H]2O)c2nc(N)[nH]c(=O)c21	m7GpppX diphosphatase (DCS1, Saccharomyces cerevisiae, UniProt Q06151, H268N)	binding, ITC				stoichiometry first site	1.01
O=C(O)C(F)(F)C(F)(F)C(F)(F)F	Albumin (ALB, Homo sapiens, UniProt P02768)	ITC		25 °C, added: HSA 20 µM		ΔG	-6.8 kcal/mol
CN1CCN(c2cc(-c3ccncc3)c(-c3ccc4ccccc4c3)nn2)CC1	Substance-K receptor (TACR2, Homo sapiens, UniProt P21452)	agonist, FLIPR		12.5 µM		activation	8.6%
C[C@@H](NC(=O)[C@@H](N)Cc1ccc(O)cc1)C(=O)NCC(=O)N(C)[C@@H](Cc1ccccc1)C(=O)NCCO	Mu-type opioid receptor (Oprm1, Mus musculus, UniProt P42866)	agonist	mouse spinal cord membranes	316 nM	baseline: basal binding	GTPγS binding	-0.3% and -2.4% and -0.65% and 2.54% and 2.11% and -3.49% and 1.22% and 0.55%
CC[N+]1(CC)CCN(c2ccc(C(N)=O)cc2)CC1	Nicotinic acetylcholine receptor alpha1/beta1/epsilon/delta	ion current, inhibitor, two-electrode voltage clamp	Xenopus oocytes	30 µM, after co-application, unit not given, added: ACh 30 µM	baseline: ACh alone	ACh response	0.687 ± 0.235
N#C[C@@H]1CC(F)(F)CN1C(=O)CNC(=O)c1ccnc2ccc(OCCCN3CCN(C(=O)CN4CCN(CC(=O)[O-])CCN(CC(=O)[O-])CC4)CC3)cc12.[18F-].[Al+3]	Fibroblast activation protein alpha (Rattus norvegicus, UniProt A0A9K3Y732)	PET	model, rat, HFpEF, HFD/L-NAME	seventh week	baseline: myocardium over liver	SUVmax myocardium/liver ratio	3.58 ± 0.2
Nc1ncnc2c1ncn2[C@@H]1O[C@H](COP(=O)(O)OP(=O)(O)O)[C@@H](O)[C@H]1O	Cell cycle histidine kinase CckA, R374A; cytoplasmic region (Caulobacter vibrioides, UniProt Q9X688, R374A)	binding, ITC		25 °C, added: without c-di-GMP		-TΔS	-2.5 kcal/mol
O=C(CCl)c1ccc(O)cc1O	UCHL1	covalent, intact protein LC-MS		12.5 µM		labelling	23.8%

Repeated from above:
Structure (SMILES)	target	assay	system	conditions	scale	measurement	value
CC[C@@H](C)[C@@H](NC(=O)[C@@H](Cc1ccc(O)cc1)NC(=O)[C@H]1CCCN1C(=O)[C@@H](CCCNC(=N)N)NC(=O)[C@H](N)Cc1c[nH]cn1)C(=O)N[C@H](C)C(=O)N[C@H](Cc1c[nH]cn1)C(=O)N[C@H](CCCNC(=N)N)C(=O)N[C@H](CCCCNC(=O)c1cccc(S(=O)(=O)F)c1)C(=O)N[C@H](Cc1ccc(O)cc1)C(=O)N[C@H](CO)C(=O)N[C@H](Cc1ccccc1)C(N)=O	Transferrin receptor protein 1 (Tfrc, Mus musculus, UniProt Q62351)	flow cytometry	DC2.4	48 h, pH 7.4, unit not given	baseline: 0 h	surface expression	0.51 and 0.413
O=C[C@H](O)COP(=O)(O)O	Triosephosphate isomerase (Leishmania mexicana, UniProt P48499, E66Q)					Km	460 µM
O=C(Nc1cnccc1Cl)N1CCN(Cc2ccc3c(c2)OC(F)(F)O3)CC1	CYSLTR2	radioligand binding		10 µM, added: [3H]LTD4		inhibition of binding	10%
